Measured values gathered from unrelated publications.
Lines come from different studies, so protocols differ. “And” joins repeats or separate records; there may be more than shown. Numbers after ± are the reported error.
WD repeat-containing protein 91: WD repeat-containing protein 91 (Homo sapiens, UniProt A4D1P6)
Genome polyprotein NS3 helicase domain: Genome polyprotein, NS3 helicase domain (Hepatitis C virus genotype 1b, UniProt Q9WMX2)
WD repeat-containing protein 91 WD40 domain, residues 392–747: WD repeat-containing protein 91, WD40 domain, residues 392–747 (Homo sapiens, UniProt A4D1P6)
ESR1: Estrogen receptor (ESR1, Homo sapiens, UniProt P03372)
UniProt P03372, sequence (whole entry, looked up): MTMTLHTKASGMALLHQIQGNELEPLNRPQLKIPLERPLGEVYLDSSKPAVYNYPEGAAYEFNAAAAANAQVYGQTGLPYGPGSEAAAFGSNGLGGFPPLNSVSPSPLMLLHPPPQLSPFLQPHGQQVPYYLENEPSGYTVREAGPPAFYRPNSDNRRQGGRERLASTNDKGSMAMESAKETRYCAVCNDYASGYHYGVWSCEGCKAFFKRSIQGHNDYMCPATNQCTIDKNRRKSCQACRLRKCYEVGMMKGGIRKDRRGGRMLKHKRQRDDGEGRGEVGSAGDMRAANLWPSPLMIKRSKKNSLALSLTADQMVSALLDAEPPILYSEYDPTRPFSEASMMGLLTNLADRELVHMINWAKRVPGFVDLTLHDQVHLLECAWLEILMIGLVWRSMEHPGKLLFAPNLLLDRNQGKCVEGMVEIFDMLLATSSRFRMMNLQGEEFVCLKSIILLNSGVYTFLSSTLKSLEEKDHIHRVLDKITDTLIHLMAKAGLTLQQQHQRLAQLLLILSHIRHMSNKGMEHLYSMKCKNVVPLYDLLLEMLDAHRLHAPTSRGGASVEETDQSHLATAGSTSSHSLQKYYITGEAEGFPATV
CDK2 with cyclin A: Cyclin-dependent kinase 2, with cyclin A (CDK2, Homo sapiens, UniProt P24941)
UniProt P51575, sequence (whole entry, unmodified, looked up): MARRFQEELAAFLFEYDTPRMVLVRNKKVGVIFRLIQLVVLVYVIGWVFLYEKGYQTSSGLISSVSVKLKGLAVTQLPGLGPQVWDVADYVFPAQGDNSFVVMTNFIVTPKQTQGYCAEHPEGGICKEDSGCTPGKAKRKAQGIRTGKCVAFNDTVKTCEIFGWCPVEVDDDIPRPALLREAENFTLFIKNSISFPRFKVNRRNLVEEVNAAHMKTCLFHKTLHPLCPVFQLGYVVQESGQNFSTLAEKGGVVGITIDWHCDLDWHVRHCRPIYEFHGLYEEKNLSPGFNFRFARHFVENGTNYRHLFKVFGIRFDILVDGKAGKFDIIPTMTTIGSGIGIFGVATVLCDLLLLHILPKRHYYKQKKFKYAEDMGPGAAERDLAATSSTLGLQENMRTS
UniProt O76090, sequence (whole entry, unmodified, looked up): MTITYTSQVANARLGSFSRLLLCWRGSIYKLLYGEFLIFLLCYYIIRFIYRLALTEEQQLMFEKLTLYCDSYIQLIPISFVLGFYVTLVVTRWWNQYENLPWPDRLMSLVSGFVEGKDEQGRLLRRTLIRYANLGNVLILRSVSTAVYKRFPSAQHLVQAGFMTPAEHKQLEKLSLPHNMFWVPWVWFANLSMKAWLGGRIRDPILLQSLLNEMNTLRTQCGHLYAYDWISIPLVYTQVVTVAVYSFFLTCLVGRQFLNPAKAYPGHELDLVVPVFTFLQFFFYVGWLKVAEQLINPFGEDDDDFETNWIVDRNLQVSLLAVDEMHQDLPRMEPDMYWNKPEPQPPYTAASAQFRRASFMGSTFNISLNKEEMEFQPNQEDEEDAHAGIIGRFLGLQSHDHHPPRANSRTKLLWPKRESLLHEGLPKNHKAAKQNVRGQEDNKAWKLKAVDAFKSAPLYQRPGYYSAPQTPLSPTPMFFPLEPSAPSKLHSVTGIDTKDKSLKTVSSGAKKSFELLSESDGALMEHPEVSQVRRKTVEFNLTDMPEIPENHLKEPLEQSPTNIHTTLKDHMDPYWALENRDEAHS
UniProt P06241, sequence (whole entry, looked up): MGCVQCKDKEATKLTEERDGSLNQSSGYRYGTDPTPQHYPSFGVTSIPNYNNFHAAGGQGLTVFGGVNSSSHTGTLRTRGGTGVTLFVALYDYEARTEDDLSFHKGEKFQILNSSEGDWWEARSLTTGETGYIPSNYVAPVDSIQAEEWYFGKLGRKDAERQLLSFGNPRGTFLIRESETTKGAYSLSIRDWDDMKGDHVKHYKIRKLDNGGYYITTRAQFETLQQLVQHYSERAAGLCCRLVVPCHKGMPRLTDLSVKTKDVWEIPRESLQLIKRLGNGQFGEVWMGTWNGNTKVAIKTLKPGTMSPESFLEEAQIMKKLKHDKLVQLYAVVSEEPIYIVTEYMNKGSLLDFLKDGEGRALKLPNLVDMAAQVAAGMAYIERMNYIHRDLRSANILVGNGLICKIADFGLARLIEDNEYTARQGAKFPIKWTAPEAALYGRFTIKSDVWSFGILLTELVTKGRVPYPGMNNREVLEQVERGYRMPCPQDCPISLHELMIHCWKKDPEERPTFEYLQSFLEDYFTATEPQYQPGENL

With CCn1c(=O)[nH]c2cc(C(=O)NC(c3ccc(F)cc3)c3cnn(C)c3)ccc2c1=O (stereo not shown) the SPR response was 27.2 RU (WD repeat-containing protein 91; binding, SPR steady state; 7.5 µM).
For NCCCCCC(=O)O, the inhibition was 1% (Genome polyprotein NS3 helicase domain; DNA binding, inhibitor; hepatitis C virus; 100 µM, added: Cy5-dT15 DNA).
For NCCCCN=C(N)N, the product formation was -2.45 µM (N-alpha-acetyltransferase 80 (NAA80, Homo sapiens, UniProt Q93015); substrate, DTNB; 2 mM, 30 min, 37 °C, added: acetyl-CoA 500 µM).
N#CC1CCN(C(=O)c2ccc(SCc3cn4ccccc4n3)cc2)CC1 has a binding of -17% and -2% (WD repeat-containing protein 91 WD40 domain, residues 392–747; SPR; 45 µM).
For O=C(COP(=O)(O)O)[C@@H](O)[C@H](O)[C@H](O)COP(=O)(O)O, “thermal stability ratio” read 0.573 (ADP-ribosylation factor 3 (ARF3, Homo sapiens, UniProt P61204); thermal proteome profiling, item: ARF3; HepG2 cell lysate; concentration not given, 57 over 37 °C, mean; reference: compound over control).
CC[C@@H](C)[C@@H](NC(=O)[C@@H](Cc1ccc(O)cc1)NC(=O)[C@H]1CCCN1C(=O)[C@@H](CCCNC(=N)N)NC(=O)[C@H](N)Cc1c[nH]cn1)C(=O)N[C@H](C)C(=O)N[C@H](Cc1c[nH]cn1)C(=O)N[C@H](CCCNC(=N)N)C(=O)N[C@@H](C(=O)N[C@H](Cc1ccc(O)cc1)C(=O)N[C@H](CO)C(=O)N[C@H](Cc1ccccc1)C(N)=O)C(C)C gave a surface expression of 1 and 1.04 (Transferrin receptor protein 1 (Tfrc, Mus musculus, UniProt Q62351); flow cytometry; MC-38; 6 h, unit not given; reference: 0 h).
With Nc1ncnc2c1ncn2[C@@H]1O[C@H](COP(=O)(O)CP(=O)(O)OP(=O)(O)O)[C@@H](O)[C@H]1O the calcium influx was 10.7% and 18.2% and 13.9% and 16.1% (P2X purinoceptor 1 (P2RX1, Homo sapiens, UniProt P51575, M214A); calcium influx; 316 nM; reference: ionomycin response).
With COc1cc(/C=C/C(=O)C(=Cc2ccc([N+](=O)[O-])cc2)C(=O)/C=C/c2ccc(O)c(OC)c2)ccc1O the ΔS was -210 ± 7.78 J/(mol·K) (haemin; binding, isothermal titration calorimetry; pH 7.4, 37 °C).
Nc1c(Br)cc(Br)cc1CN[C@H]1CC[C@H](O)CC1 gave a potentiation of 76% (Glutamate receptor 2 (Homo sapiens, UniProt P42262); ion current, positive allosteric modulator, SyncroPatch patch clamp; HEK293; 10 µM).
Under “Gs protein activation”, CCCCC[C@H](O)/C=C/[C@H]1C(=O)C[C@H](O)[C@@H]1C/C=C\CCCC(=O)O is recorded as 106% (PTGDR (Homo sapiens, UniProt Q13258, M112A); agonist, ONE-GO BRET; 10 µM (10 µM); reference: wild-type receptor maximum).
The SPR response of N#Cc1ccc(Nc2cccc(C(=O)NC3CCc4cc(F)ccc43)c2)cc1 (stereo not shown) is reported as 27.4 RU and 35.9 RU (WD repeat-containing protein 91 WD40 domain, residues 392–747; binding, SPR single-concentration screen; 45 µM).
For CCN1CCN(c2cc(N3CCN(CC)CC3)nc(NCCNc3ccnc4cc(Cl)ccc34)n2)CC1, the activation was 1.04 ± 0.01 fold (Nuclear receptor subfamily 4 group A member 3, ligand-binding domain (Homo sapiens, UniProt Q92570); reporter gene, Gal4 hybrid reporter; 1 µM; reference: vehicle).
O=C(NC1CCCS(=O)(=O)c2ccccc21)c1ccc2nc(O)cnc2c1 (stereo not shown) has an SPR response of 37 RU (WD repeat-containing protein 91; binding, SPR steady state; 15 µM).
With CC(=O)N[C@H](C(=O)N[C@@H](CC(N)=O)C(=O)N[C@@H](CCCCN)C(=O)N[C@@H](C)C(=O)N[C@@H](CC(C)C)C(=O)N1CCC[C@H]1C(=O)N[C@@H](C)C(=O)N[C@@H](CC(C)C)C(=O)N1CCC[C@H]1C(=O)N[C@H](C(=O)N[C@@H](C)C(N)=O)C(C)C)C(C)C the enthalpy change was -10 ± 0.454 kcal/mol (Tyrosine-protein kinase Fyn, SH3 domain (FYN, Homo sapiens, UniProt P06241); binding, isothermal titration calorimetry; 50 mM sodium phosphate, 100 mM NaCl; concentration not given, pH 7.0, 25 °C).
O=C1CC[C@H](N2Cc3cc(N4CCN(CC5CCN(c6ccc([C@@H]7c8ccc(O)cc8CC[C@@H]7c7ccccc7)cc6)CC5)CC4)ccc3C2=O)C(=O)N1 has a degradation of at least 90% (ESR1; degrader, western blot; breast cancer cell lines; concentration not given, ER, wild type and mutant).
For Nc1ccn([C@H]2CC[C@@H](CO)O2)c(=O)n1, the inhibition was 0% (Genome polyprotein NS3 helicase domain; DNA binding, inhibitor; hepatitis C virus; 100 µM, added: Cy5-dT15 DNA).
Nc1ccc(C(=O)O)cc1 gave a current density of -12.2 pA/pF and -14.3 pA/pF and -16.3 pA/pF and -12.1 pA/pF and -3.57 pA/pF and -41.5 pA/pF (BEST1, with wild-type BEST1 (Homo sapiens, UniProt O76090, Q293K); ion current, whole-cell patch clamp; HEK293 co-expressing mutant and wild-type; concentration not given, voltage -100 mV).
For C=CC(=O)N1CCC(COCC(=O)N2CCN(c3nc(-c4cnc(N)nc4C(F)F)nc(N4CCOC[C@@H]4C)n3)CC2)CC1, the remaining binding was 97% (Tyrosine-protein kinase ABL1, phosphorylated (ABL1, Homo sapiens, UniProt P00519); KINOMEscan; 1 µM).
CC(/C=C/c1cccc(Oc2ccc(F)cc2)c1)N(O)C(N)=O (stereo not shown) gave an inhibition of 0% (Genome polyprotein NS3 helicase domain; DNA binding, inhibitor; hepatitis C virus; 100 µM, added: Cy5-dT15 DNA).
The remaining activity of COc1cc(Nc2ncc3c(n2)-c2ccc(Cl)cc2C(c2c(F)cccc2OC)=NC3)ccc1C(=O)O is reported as 6% (MAPKAPK3; kinase activity; 1 µM).
CC(=C/C(=O)O)/C=C/C=C(\C)C1C=C2C(C)(C)CCCC2(C)O1 (stereo not shown): “Pearson correlation coefficient” 0.47 (Rhodopsin (RHO, Homo sapiens, UniProt P08100, T17M); ER retention, immunostaining co-localization, item: opsin with calnexin; COS-7 transfected T17M; 30.00 µM).
OC(CCN1CCCCC1)(c1ccccc1)C1CCCCC1 (stereo not shown) gave an inhibition of 0% (Genome polyprotein NS3 helicase domain; 100 µM).
With Cc1ccc(C[C@H](NC(=O)OC(C)(C)C)C(=O)NC/C=C/S(=O)(=O)c2ccccc2)cc1 the kinact/Ki was 139000 M⁻¹ s⁻¹ (Rhodesain (rhodesain, Trypanosoma brucei rhodesiense, UniProt Q95PM0); inhibitor; pH 5.5, 37 °C, added: Z-Phe-Arg-AMC).
With O=c1cc(-c2ccccc2)oc2cc(O[C@@H]3O[C@H](CO[C@@H]4O[C@H](CO)[C@@H](O)[C@H](O)[C@H]4O)[C@@H](O)[C@H](O)[C@H]3O)c(O)c(O)c12 the selectivity ratio was 12.9 (ESR1; array formation; PRL-HeLa; reference: EC50 ERβ over EC50 ERα).
For CC[C@@H]1[C@H](F)C(=O)N[C@@H]1COc1nccc2cc(C(N)=O)c(OC)cc12, the inhibition was 16.3% (CAMK2D (Homo sapiens, UniProt Q13557); ATP-site probe binding, ActivX profiling; THP-1 cell lysate; 0.2 mM, Lys1 site).
C=CCc1cccc(/C=N/NC(=O)CN2CCN(Cc3ccccc3)CC2)c1O has an inhibition of 1% (Genome polyprotein NS3 helicase domain; DNA binding, inhibitor; hepatitis C virus; 100 µM, added: Cy5-dT15 DNA).
Cc1c(NS(=O)(=O)c2cccc3nonc23)c(=O)n(-c2ccccc2)n1C has a Kd of over 100 µM (CDK2 with cyclin A).
For O=C(c1cc2cccn2cn1)N1CCN(C(=O)c2ccoc2)C(c2ccc(F)cc2)C1 (stereo not shown), the SPR response was -8.3 RU and -0.8 RU (WD repeat-containing protein 91 WD40 domain, residues 392–747; binding, SPR single-concentration screen; 45 µM).
O=C(Cn1c(NCCO)nc2ccccc21)c1cccc([N+](=O)[O-])c1 gave a Kd of over 100 µM (CDK2 with cyclin A).
For C[C@]12CC[C@@H]3c4ccc(O)cc4C[C@@H](CCCCCCCCC[S+]([O-])CCCC(F)(F)C(F)(F)F)[C@H]3[C@@H]1CC[C@@H]2O (stereo partly shown), the antagonist response was 43.7% (ESR1; antagonist, CALUX reporter; U2OS; 3e-07 µg/mL).
The ΔS of CC[C@H](C)[C@H](NC(=O)[C@H](CCCCN)NC(=O)CNC(=O)[C@@H](NC(=O)[C@@H](NC(=O)[C@H](CCSC)NC(=O)[C@H](Cc1c[nH]cn1)NC(=O)CN)[C@@H](C)O)C(C)C)C(=O)N[C@@H](Cc1ccc(O)cc1)C(=O)N[C@@H](C)C(=O)N[C@@H](C)C(=O)N[C@@H](CCSC)C(=O)N[C@@H](CCSC)C(=O)N[C@@H](C)C(=O)N[C@@H](CCSC)C(=O)N[C@@H](CCC(=O)O)C(=O)N[C@@H](Cc1ccc(O)cc1)C(=O)N[C@@H](Cc1ccc(O)cc1)C(=O)N[C@@H](CCCNC(=N)N)C(=O)N[C@@H](CCC(N)=O)C(=O)N[C@@H](CO)C(=O)N[C@@H](CCCCN)C(=O)N[C@@H](C)C(=O)N[C@@H](CCCCN)C(=O)N[C@@H](CCCCN)C(=O)N[C@@H](CC(C)C)C(=O)N[C@@H](CCC(N)=O)C(=O)N[C@@H](C)C(=O)N[C@@H](CCSC)C(=O)N[C@@H](CCCNC(=N)N)C(=O)O is reported as 24 cal/mol/K (Calmodulin-1, Ca2+-bound C-lobe (CALM1, Homo sapiens, UniProt P0DP23); binding, isothermal titration calorimetry; pH 7.4, 15 °C, C-lobe, CaV2.1 IQ domain, added: Ca2+).
